Measurements gathered from unrelated publications.
Numbered parts are unrelated; each lists some results of a single study. Substitutions count along the parent as printed.

Series 1
Target: Interferon regulatory factor 5, full length, phosphomimetic (IRF5, Homo sapiens, UniProt Q13568-2, residues 1-514, S451D/S453D/S456D/S462D)
Method: protein-binding microarray
Form: double-stranded DNA, one strand shown
Matrix: in vitro
Concentration: 940 nM top
Setting: 60-bp whole probe
Together with: salmon DNA 0.4 mg/ml
Baseline: random background probes
Reading: higher = stronger binding
Shared flanks, not repeated: GCCTAGCAC … GTCTTGATTCGCTTGACGCTGCTG
| Strand | fitted relative affinity |
| --- | --- |
| TCATGTCTGGATGTGCCACTGTGCTAG | -0.0305 z-score |
| TCAGATATGCCAAATCTGACTGTGCTA | -0.296 z-score |
| GACGAACTGGCGTATCGAGACGTGCTA | 0.0263 z-score |
| GACGGTCTCGATATCGGGACGTGCTAG | 4.06 z-score |
| TTAGGTCTCGGTTTCGGGTAGTGCTAG | 7.46 z-score |
| TCATGTGCCCATCTCTGACTGTGCTAG | -0.0076 z-score |
| TCATTTGTTTTTTTCTAACTGTGCTAG | 1.51 z-score |
| TTAGATTTCAGTATCGATAAGTGCTAG | 5.14 z-score |
| TGGAGAGCATATTCTGTGACGTGCTAG | -0.632 z-score |
| GACGGACTGGGACTGGGGAGGTGCTAG | -0.617 z-score |
| TCACGTATCTTCATTGTACTGTGCTAG | 0.592 z-score |
| GACGGTCTCCTTCTACTGACGTGCTAG | 0.84 z-score |
| TTAGTTCTCGGTTTCGGTTAGTGCTAG | 11 z-score |
| GACGATTTCGGGTTTCTAGACGTGCTA | 1.21 z-score |

Series 2
Target: CCNB3, cyclin fold, Cln2 fusion (human)
Method: yeast growth competition, sequencing
Matrix: yeast
Setting: weak parent motif
Baseline: not given
Reading: higher = stronger binding
Parent: CDC6 docking peptide (human); TLKGRRLVFDNQL
| Change | normalised enrichment score |
| --- | --- |
| F9D | 0.246 |
| L13C | 0.543 |
| T1Y | -0.214 |
| R5Q | -0.373 |
| F9I | 0.312 |
| D10F | 0.0597 |
| G4R | 0.424 |
| V8G | 0.147 |
| L7A | 0.164 |
| G4E | 0.349 |
| V8A | -0.51 |
| L13H | -0.0617 |

Series 3
Target: Phosphate system positive regulatory protein PHO4, full length, GST-tagged (PHO4, Saccharomyces cerevisiae, UniProt P07270, residues 1-312)
Method: competition protein-binding microarray
Form: double-stranded DNA, one strand shown
Matrix: in vitro
Concentration: 2 µM
Setting: whole 60-bp probe, lowest competitor level
Together with: Cbf1 competitor, 0.05 µM
Reading: higher = stronger binding
Residues (chain): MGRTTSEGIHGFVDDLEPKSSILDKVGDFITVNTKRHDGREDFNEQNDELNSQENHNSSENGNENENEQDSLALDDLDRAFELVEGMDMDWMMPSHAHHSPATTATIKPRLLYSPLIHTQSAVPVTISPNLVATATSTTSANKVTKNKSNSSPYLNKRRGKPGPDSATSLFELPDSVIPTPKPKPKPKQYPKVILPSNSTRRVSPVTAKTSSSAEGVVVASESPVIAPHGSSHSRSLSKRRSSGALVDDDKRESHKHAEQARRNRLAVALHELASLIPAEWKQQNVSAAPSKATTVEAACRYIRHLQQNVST
| Strand | fluorescence intensity [a.u.] |
| --- | --- |
| GTCTTGTCTCATTTTCACGTGGTATTCCCCACTTCAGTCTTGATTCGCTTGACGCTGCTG | 11500 |
| CTTGGGCCCTATCGGCACGCTAAAGATGCTTGTGGAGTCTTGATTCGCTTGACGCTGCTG | 6170 |
| CGTCCTAGTGATTGGCCTGTGGGTGCCATGAGGAAGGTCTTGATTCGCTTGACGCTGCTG | 6480 |
| ACTAATTAAGGTTCTCACGTGGAACTTCCGTCAATGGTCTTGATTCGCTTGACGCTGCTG | 15000 |
| CGCTGGAAAACCGCCCACGTGGGAAGAAGCCCTGGCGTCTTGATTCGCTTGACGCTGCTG | 17900 |
| AAAGCGGTAATTTGCGATGTGGGTGCAGATATCTATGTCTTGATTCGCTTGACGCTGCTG | 4470 |
| AAATTACTAAGTTGACGAGTGGGTGACGCCGTATGAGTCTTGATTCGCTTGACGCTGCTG | 4130 |
| AAACAGAGCAACCATCACGTGCAAAAAGAACTACGAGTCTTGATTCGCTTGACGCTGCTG | 16900 |
| TGTGGCTACGCTGGTCACGTGTTAGCAGAAGTCTTAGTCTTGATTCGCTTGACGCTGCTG | 16000 |
| CATACCCAACCTTGCGGCGTGGGTGAAGATATTTGTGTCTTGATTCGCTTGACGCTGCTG | 9160 |
| AAAGCGGTAATTTGAACAGTGGGTGCAGATATCTATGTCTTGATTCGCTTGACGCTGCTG | 3810 |
| CTTCTGTAAATTTGACGAGTGGGTGGACGCGCCCCGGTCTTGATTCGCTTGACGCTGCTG | 3990 |
| AACGAGCTCTGCTGGCACGCATTGAAGTTGGTTCATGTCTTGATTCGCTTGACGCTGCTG | 9800 |
| TCTGATTGTGACAGCCACGTGGCCGGCTGAGTGTAAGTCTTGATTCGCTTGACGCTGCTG | 18300 |

Series 4
Target: Histone acetyltransferase KAT6A, winged helix 2, GST fusion (KAT6A, Homo sapiens, UniProt Q92794, residues 85-181)
Method: protein binding microarray
Form: double-stranded DNA, one strand shown
Matrix: in vitro
Concentration: not given
Setting: 8-mer, flanks averaged, mean of 2 arrays, mostly near background
Baseline: not given
Reading: higher = stronger binding
Construct (chain): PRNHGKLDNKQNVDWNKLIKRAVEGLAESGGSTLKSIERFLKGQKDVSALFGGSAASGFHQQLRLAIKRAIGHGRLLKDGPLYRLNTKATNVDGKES
| Strand | E-score |
| --- | --- |
| ACCGCGGA | 0.178 |
| CCGTGACA | -0.139 |
| ATGAGCGG | -0.0808 |
| ATTCCTTG | 0.0309 |
| CAGACTGA | 0.0976 |
| CCACGCCC | -0.0628 |
| AGGTGACG | -0.0537 |
| CGGCAGCA | 0.0986 |
| CTCTAAAA | 0.0888 |
| ATACAAGA | -0.027 |
| ATAGGAAT | -0.0106 |

Series 5
Target: RING finger protein unkempt homolog, zinc fingers 1-6, GST-SBP tag (UNK, Homo sapiens, UniProt Q9C0B0, residues 30-357)
Chain of UniProt Q9C0B0 (30-357, looked up): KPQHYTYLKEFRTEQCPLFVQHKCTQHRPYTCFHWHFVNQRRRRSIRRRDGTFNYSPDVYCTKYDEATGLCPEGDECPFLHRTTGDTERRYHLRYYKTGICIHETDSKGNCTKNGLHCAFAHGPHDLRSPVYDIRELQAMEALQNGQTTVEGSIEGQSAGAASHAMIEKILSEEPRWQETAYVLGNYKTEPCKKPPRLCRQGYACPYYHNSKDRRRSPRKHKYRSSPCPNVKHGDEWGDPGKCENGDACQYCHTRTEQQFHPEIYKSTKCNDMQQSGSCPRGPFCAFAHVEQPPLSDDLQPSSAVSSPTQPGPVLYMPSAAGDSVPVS
Method: RNA Bind-n-Seq
Form: RNA
Matrix: in vitro
Concentration: not given
Setting: RNA with constant flanks, human-mouse chimeric sites, ends assumed
Baseline: input RNA pool
Reading: higher = stronger binding
| Strand | bound/input enrichment [ratio] |
| --- | --- |
| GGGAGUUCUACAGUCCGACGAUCGUGACUGGUGUUAAGAUUUCCCCUCAGCAAAGAAGUGCAGUAGUCACAAUAAUCCCUUCUGUGGUGAGUGCCAGUCAGAUUGUGGAGCUGGUCCCAGACCUCAGUUUAGAUACUGGGACUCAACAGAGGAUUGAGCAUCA | 0.479 |
| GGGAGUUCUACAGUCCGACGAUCCCAAUUGUGGAGCAGUACUUGAAGACAAAGAAAAAUUCUAAUAAUUUAAUCAUCAAGUACAUUAGCUGCCGCCUGCUGACACUCAUCGUUAUACUGUUAGCGUGUAUCUACUUGAGCUAUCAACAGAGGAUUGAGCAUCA | 0.315 |
| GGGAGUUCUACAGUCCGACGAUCAGAAAGCAAAACUUGGAACGAUUUAAGAAAGGAGAUGUAAGAUUCUUGAUUUGCACAGAUGUAGCUGCUAGAGGGAUUGAUAUCCAUGGCGUUCCUUAUGUUAUAAACGUCACCCUGCCUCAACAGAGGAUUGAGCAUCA | 0.299 |
| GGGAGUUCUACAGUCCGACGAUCCUGUGUGUGCUGAAUAAAUGGCUUGUAAAGAAGUUUUCCAAGUUGUAAACCCAUGCUGUUAUUAUAGUUGCUGCAAAAUGUUCUUCCUGAUAUUGAUUUUAUUUGUUAACUGAAGGUCUCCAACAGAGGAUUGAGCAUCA | 0.486 |
| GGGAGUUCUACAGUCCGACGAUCACUCAGAGAUCCACCUCAAUUGAAGUGGGGAGUAAAGGUGUGGCCACCACACCUAACUUGAUGGAUAUAUAUUUUUUCUCUUUUAUGUCUUCCUGUUCGUCCAGGGAAGAAAGAUUUGUUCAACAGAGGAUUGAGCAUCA | 0.358 |
| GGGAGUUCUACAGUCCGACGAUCGAGCCCAGCCGGCAGUUUGUAAAGGACUCAAUUCGGCUGGUUAAAAGAUGCACUAAACCCGACAGAAAAGAAUUCCAGAAGAUUGCCAUGGCUACAGCUAUAGGAUUUGCUAUAAUGGGACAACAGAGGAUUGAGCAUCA | 0.314 |

Repeated from above (series 4):
| Strand | E-score |
| --- | --- |
| ATGAGCGG | -0.0808 |
| ATTCCTTG | 0.0309 |
| CAGACTGA | 0.0976 |
| CCACGCCC | -0.0628 |
| AGGTGACG | -0.0537 |
| CGGCAGCA | 0.0986 |
| CTCTAAAA | 0.0888 |
